Published values gathered from unrelated publications.
A part holds a random share of what one study measured.

Set 1 — technique: RNA Bind-n-Seq; molecule type: RNA; sample: in vitro; tested at: 100 nM; baseline: input RNA pool; direction: higher = stronger binding
Target: RING finger protein unkempt homolog, zinc fingers 1-6, SBP tag (UNK, Homo sapiens, UniProt Q9C0B0, residues 30-357)
Chain of UniProt Q9C0B0 (30-357, looked up): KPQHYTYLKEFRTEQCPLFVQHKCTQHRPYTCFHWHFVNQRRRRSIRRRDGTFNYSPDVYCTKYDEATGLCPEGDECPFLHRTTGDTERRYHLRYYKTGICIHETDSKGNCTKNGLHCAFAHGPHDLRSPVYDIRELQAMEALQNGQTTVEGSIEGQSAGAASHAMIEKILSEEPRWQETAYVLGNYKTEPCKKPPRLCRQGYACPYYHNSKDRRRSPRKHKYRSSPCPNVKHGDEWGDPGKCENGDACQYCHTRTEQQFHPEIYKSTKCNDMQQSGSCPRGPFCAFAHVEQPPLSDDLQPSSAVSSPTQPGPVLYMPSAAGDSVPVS
Notes: RNA with constant flanks, vertebrate orthologous sites, ends assumed
Strand	bound/input enrichment [ratio]
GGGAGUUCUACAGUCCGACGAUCGCAUACUCCAUCACUGUGAUACUUAAAAUAUGCACAGUCCUAAUUCUUUCUAAAUGAUCCUAUUAUUUUUCUAGCUGUAUCUUUGUAUCUCAUACUGUUAUUUAUCAAUUUUGUUCCCCGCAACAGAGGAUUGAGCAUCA	3.47
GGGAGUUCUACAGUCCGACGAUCCACAUCUGGUGAUAUUUGGCCUGGCCUUUCAGCUUAUGAUAAUAGUCCAAGAUCACCUCAUAGUCCAUCACCUAUUGCCACACCACCUAGUCAGAGUUCAUCUUGCUCAGAUGCCCCCAUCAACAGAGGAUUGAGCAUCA	1.49
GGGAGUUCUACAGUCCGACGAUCGUGACUUUGGAAGUCCGUAGUGUCUCAUUGCAGAUAAUUUUUAGCUUAGGGCCUGGUGGCUAGGUCGGUUCUCUCCUUUCCAGUCGGAGACCUCUGCCGCAAACAUGCUCCGCCAGAUCACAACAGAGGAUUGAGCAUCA	1.32
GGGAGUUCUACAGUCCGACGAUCUCCUCUGAAUCCCAUAUCUUCUGUUUCAUAGUGCAGAAGUAUUCUUUUCAAUUAUAUUAUUAGUGGACUUGUUAUAAUUUUAGAGAAACUUUGAGUACAGAUACUGUGAGCUUACAUGGACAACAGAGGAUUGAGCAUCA	1.59
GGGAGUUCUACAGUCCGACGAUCAUGUAGAGAAAAAUUUUCAUUGACCCCUCCCACCAUUGUGAAAUUCUCUAGCAAUUUAUUUAGAAUCUUAAUUUUUCUAAUACAAGCACACUGUCUUAGUCAUUUGUAGCCCGUGACUAACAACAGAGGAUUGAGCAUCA	1.82
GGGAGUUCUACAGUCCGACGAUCUUUCGGUUUUGCACAUGACAGUGUUUGUUUUGAGGAUCUUCUGAGGAAGAAGGGGUGCUAUGGUGGUGGUGCCUGGGUUCCUGGCCUCCAGUGCCCCACCCCCUCACCACCCCACCUGGCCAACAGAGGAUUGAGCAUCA	0.351
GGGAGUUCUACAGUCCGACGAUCUUCUCCUGGGUUAGAGCGGGGUCUCCUUCUACAUCUCCCGUGAGGGGAAAAAGCCCCAAAUAGACUCCUUACACAUCUGAUUAGAGUGUUCUGUCUCUGCCAUCUACUUGUAUAUACAUGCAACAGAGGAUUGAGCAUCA	0.655
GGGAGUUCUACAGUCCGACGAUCUCUAAGAAUCAGAUGCUUUUUGUUUUCUUUGGGUCUCUGUUAACCUAUCUAUUGUUCUAUUAGUCCCUCUCUUGCACAAAUAUCGUACUUUAAAAUUGUGUUUAUGUAAAACAGGACUGACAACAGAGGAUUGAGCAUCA	0.25

Set 2 — technique: RNA Bind-n-Seq; molecule type: RNA; sample: in vitro; tested at: 365 nM; baseline: no-protein control; direction: higher = stronger binding
Target: RNA binding protein fox-1 homolog 2, RRM domain, GST-SBP tag (RBFOX2, Homo sapiens, UniProt O43251-10, residues 100-194)
Notes: natural RNA segment, single round, ends assumed
Residues (chain): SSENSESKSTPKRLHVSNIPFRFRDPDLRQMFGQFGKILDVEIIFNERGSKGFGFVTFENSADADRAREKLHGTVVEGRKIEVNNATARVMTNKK
Strand	RBNS enrichment (R)
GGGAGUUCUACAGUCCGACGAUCGGAUUUUGAGGUUAUUUUAACCAUGGAAUUAUUUUUAUAGAAGGGGAAAAUGUAUGUGAAAGUCUCUAUUUGUGUAUUUCUCUCCUAAAGUUGUGUCUCUUUGGGAAUUGUGGAAUUCUCGGGUGCCAA	0.871
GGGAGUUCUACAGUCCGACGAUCAGAAGCCAGAGCCUUUGACAUGUGGGCUGGAGGUGAGUGGCCCACCACAGCAACCUACUGUAUAUUUUCUCCCUGAAAUCCUGCCCUCUGUCUUUGCACUUAGCUGUUCAUGGAAUUCUCGGGUGCCAA	0.688
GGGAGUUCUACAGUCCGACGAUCAUUCAAAGUCAGAAAAACAUCAAGAACUUCUUUGAUGCAUAGGGUGUAUCAGCACUCAGCUCCCACAGAAGUCAAGUCACAAAAUAUAGUGUCAGUUAACUAUAAGGAAGUGGAAUUCUCGGGUGCCAA	0.301
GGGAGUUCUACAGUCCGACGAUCGCCAGAAUUAAAUUAUGUAUUAAACUCUUGUCUCCAUUUAACACCUUUGCAGUGAAAAACUUUUUGCUUCAUAUAGUUAAUUAUAUUCAUAUUGAAUGUAUUAACAGAUAUGGAAUUCUCGGGUGCCAA	0.691
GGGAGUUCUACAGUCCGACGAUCUGUGUGAAACUUAUAUUUGUAUGUAGCUUUCUAGGAAAAUUUUACAGACACUUAAAGUAUUUAUGCUUAAGUGUGCAUUUUUUUAUUCUAAUAUUCCUUCUAGUCAGUGGUGGAAUUCUCGGGUGCCAA	1.33
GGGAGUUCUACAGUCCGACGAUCCCUGCCAGCCUGUCCACAUUUGUCAUGGGCCAAGCCACAGCCUUUGAAUGAGACGGCACCCAGUAAUCUUUGGAAACAUCAGAAGCUGCUCUCCAUUGACCUGGACAAAGUGGAAUUCUCGGGUGCCAA	0.487
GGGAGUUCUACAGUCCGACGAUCGGAUCACUAAACUAGGUAGAGAAGGGCACACCACACCCCAGCGCCCCAGGAGCCAAAACUCACGCUCGGGCAGCAGCAGCUGAGGCUUGAGGAAGCUGGUGUCCUAAGACUGGAAUUCUCGGGUGCCAA	0.242
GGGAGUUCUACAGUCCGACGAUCUCCUAGUAGGGGUACCACUGAAUCUGUACAGAGCCGUAAAAACUGAAGUUCUGCCUCUGAUGUAUUUUGUGAGUUUGUUUCUUUGAAUUUUCAUUUUACAGUUACUUUUCUGGAAUUCUCGGGUGCCAA	0.58

Set 3 — technique: protein-binding microarray; molecule type: double-stranded DNA, one strand shown; sample: in vitro; tested at: 250 nM; notes: 60-bp whole probe; added: salmon DNA 0.4 mg/ml; baseline: random background probes; direction: higher = stronger binding; shared flanks, not repeated: GCCTAGCAC … GTCTTGATTCGCTTGACGCTGCTG
Target: Interferon regulatory factor 5, full length, phosphomimetic (IRF5, Homo sapiens, UniProt Q13568-2, residues 1-514, K96S/S451D/S453D/S456D/S462D)
Strand	log fluorescence
TTAGGTTTCGGACTGGGATAGTGCTAG	5.32 z-score
TGCGGTTCAGATATAGGATAGTGCTAG	0.335 z-score
GACGGTATCGGTCTCGGGGCGTGCTAG	4.94 z-score
GGCGGTATCGGGTATCGGGACGTGCTA	3.26 z-score
TTCAATTTTTGCATCGTAAGGTGCTAG	0.916 z-score
TTAGGCCTGCTTCTCCTTTAGTGCTAG	-0.324 z-score
GGCGATCTCAGTATCGAGACGTGCTAG	1.49 z-score
TCAGATTTCAGTTTTCTACTGTGCTAG	2.05 z-score
TTAGATTTCGGGTTTCGATGAGTGCTA	7.92 z-score
GACGAACTGAGTTTCGAGTCGTGCTAG	5.46 z-score
TTAGGTTTCGACTATGGGTTAGTGCTA	7.42 z-score
GACGATATCGGGTTTTGAGACGTGCTA	1.66 z-score
AATGAGGCACTGAGAGCAGAGTGCTAG	-0.458 z-score
TTATGTCTGGGTATTTTTTCGTGCTAG	0.692 z-score
GACGTTCTCGGTCTCGGGACGTGCTAG	0.507 z-score
GACGGTTTCGGGCCTGGGGACGTGCTA	4.1 z-score
TTAGGTATCCTTATCCTATAGTGCTAG	0.174 z-score
TGAGGTATCCTTATCCTTTAGTGCTAG	-0.227 z-score
GACGGTTTCGGTCACGGGACGTGCTAG	9.55 z-score

Set 4 — technique: protein binding microarray; molecule type: double-stranded DNA, one strand shown; sample: in vitro; tested at: not given; baseline: not given; direction: higher = stronger binding
Target: Histone acetyltransferase KAT6A, winged helix 1, GST fusion (KAT6A, Homo sapiens, UniProt Q92794, residues 1-85)
Notes: 8-mer, flanks averaged, mean of 2 arrays, mostly near background
Residues (chain): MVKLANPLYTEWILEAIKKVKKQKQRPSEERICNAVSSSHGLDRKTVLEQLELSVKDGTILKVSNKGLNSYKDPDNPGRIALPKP
Strand	E-score
AAGCTTAG	-0.0616
CGTCAGAA	-0.164
CCCGCAGG	0.264
ACTCTAGC	0.00283
CCAACGAG	-0.25
CTAGTAGA	-0.186
GATACCTA	-0.0749
ATGGGTGG	-0.14
CATCTGAA	-0.188
ACCCCAAG	-0.131
AACCGCCG	0.407
CAACTATC	-0.159
CAGTCAAG	-0.244
AGCCGGTC	0.16
CAGTTTGG	-0.155
ACCTGGGC	-0.0141
GACAATCC	0.0179
GAACTGAA	-0.0297
AACGAGTC	-0.0152
AACGCGTA	0.298
AGCGGGAG	0.208

Some of these lines once more (set 4):
Strand	E-score
GATACCTA	-0.0749
CCAACGAG	-0.25
AAGCTTAG	-0.0616
AACGAGTC	-0.0152
CAGTCAAG	-0.244
AGCCGGTC	0.16
ACCCCAAG	-0.131
AACGCGTA	0.298
